Experimental data from different studies.
Each line is one published result; not all experiments were run side by side. ± gives the spread as reported.
CASP3: Caspase-3 (CASP3, Homo sapiens, UniProt P42574)
Chain of UniProt P42574 (whole entry, looked up): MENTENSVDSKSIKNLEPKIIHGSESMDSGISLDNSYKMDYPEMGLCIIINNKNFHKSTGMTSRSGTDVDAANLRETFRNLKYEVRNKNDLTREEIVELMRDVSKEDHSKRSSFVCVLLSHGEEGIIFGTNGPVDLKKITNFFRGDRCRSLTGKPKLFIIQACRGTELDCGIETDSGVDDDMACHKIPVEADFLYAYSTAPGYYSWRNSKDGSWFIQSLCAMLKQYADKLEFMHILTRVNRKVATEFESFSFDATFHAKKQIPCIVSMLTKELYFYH
CHRM3: Muscarinic acetylcholine receptor M3 (CHRM3, Homo sapiens, UniProt P20309)
Chain of UniProt P20309 (whole entry, looked up): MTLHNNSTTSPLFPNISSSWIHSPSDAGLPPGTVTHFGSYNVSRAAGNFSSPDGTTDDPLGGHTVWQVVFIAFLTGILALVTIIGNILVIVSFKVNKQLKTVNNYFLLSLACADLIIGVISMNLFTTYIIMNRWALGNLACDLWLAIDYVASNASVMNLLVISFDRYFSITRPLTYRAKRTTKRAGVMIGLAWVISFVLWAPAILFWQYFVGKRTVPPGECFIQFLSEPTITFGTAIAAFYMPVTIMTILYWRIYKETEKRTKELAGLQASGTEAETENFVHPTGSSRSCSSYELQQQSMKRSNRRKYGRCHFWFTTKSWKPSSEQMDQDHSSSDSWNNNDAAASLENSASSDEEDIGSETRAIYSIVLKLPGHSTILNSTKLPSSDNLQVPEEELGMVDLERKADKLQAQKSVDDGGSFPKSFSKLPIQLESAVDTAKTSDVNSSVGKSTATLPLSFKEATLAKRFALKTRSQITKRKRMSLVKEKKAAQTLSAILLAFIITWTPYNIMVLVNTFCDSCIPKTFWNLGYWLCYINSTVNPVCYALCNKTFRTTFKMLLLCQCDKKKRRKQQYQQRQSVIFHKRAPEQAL
MAOB: Amine oxidase [flavin-containing] B (MAOB, Homo sapiens, UniProt P27338)
Chain of UniProt P27338 (whole entry, looked up): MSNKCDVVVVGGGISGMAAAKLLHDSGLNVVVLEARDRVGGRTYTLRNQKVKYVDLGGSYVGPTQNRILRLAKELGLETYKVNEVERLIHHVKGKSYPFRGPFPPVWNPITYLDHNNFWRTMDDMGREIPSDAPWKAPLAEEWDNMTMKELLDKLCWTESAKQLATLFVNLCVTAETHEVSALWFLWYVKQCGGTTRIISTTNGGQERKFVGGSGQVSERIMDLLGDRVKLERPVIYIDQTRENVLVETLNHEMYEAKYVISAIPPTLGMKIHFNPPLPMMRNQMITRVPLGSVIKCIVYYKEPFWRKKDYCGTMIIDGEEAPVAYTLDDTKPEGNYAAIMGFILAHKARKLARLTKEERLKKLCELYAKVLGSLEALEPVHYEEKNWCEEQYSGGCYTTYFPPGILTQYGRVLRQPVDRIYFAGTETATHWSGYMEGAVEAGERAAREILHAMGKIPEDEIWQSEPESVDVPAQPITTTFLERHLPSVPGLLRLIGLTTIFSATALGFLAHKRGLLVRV
Chain of UniProt P00591 (whole entry, looked up): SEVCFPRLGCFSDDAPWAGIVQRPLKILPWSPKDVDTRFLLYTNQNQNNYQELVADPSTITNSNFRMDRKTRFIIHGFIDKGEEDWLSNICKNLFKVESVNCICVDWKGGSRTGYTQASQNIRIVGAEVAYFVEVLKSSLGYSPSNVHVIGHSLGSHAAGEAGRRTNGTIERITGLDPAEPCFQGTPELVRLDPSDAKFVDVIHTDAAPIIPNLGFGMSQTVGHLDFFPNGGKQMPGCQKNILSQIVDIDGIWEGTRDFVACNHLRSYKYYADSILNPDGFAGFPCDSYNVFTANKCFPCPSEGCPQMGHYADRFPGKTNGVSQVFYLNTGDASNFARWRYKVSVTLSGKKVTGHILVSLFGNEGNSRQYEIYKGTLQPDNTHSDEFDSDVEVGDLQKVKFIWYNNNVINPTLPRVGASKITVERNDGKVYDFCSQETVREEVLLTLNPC
Chain of UniProt Q27793 (whole entry, looked up): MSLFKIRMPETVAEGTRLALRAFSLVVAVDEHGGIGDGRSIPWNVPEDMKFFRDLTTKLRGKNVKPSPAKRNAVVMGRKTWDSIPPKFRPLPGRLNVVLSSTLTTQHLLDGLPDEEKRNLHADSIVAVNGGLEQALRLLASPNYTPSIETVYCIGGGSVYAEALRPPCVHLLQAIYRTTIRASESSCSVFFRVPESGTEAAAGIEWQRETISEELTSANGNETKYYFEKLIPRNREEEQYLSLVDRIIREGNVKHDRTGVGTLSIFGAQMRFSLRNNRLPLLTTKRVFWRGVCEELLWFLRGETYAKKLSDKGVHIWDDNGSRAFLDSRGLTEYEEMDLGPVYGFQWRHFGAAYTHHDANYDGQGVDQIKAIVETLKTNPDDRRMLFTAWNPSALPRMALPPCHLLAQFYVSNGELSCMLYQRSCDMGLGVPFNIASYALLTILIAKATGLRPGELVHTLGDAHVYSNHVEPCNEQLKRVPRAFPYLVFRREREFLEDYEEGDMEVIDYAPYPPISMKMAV
Chain of UniProt Q12908 (whole entry, looked up): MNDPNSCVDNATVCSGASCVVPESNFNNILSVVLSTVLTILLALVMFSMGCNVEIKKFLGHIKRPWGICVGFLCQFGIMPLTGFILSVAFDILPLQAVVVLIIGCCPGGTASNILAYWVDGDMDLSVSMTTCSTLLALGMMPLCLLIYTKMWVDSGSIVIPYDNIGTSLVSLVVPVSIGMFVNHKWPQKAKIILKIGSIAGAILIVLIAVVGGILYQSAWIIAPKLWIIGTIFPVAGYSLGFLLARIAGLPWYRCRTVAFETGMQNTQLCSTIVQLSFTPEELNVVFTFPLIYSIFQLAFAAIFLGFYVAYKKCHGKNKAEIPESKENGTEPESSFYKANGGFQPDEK
Chain of UniProt Q9R0C9 (whole entry, looked up): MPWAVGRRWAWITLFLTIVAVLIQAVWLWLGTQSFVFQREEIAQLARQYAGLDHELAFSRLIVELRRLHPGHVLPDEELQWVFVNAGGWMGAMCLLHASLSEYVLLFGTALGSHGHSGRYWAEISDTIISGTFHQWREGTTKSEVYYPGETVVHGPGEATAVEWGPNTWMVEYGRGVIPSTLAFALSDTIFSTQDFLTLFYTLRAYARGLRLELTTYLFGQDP
Chain of UniProt P0DMS8 (whole entry, looked up): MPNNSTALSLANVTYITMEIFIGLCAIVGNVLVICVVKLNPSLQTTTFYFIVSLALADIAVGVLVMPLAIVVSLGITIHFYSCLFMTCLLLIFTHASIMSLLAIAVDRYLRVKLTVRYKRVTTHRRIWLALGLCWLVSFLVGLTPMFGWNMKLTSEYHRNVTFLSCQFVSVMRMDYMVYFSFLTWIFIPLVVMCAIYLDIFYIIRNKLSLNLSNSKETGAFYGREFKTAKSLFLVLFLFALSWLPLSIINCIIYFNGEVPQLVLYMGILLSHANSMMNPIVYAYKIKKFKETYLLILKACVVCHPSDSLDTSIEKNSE
Chain of UniProt P42229 (whole entry, looked up): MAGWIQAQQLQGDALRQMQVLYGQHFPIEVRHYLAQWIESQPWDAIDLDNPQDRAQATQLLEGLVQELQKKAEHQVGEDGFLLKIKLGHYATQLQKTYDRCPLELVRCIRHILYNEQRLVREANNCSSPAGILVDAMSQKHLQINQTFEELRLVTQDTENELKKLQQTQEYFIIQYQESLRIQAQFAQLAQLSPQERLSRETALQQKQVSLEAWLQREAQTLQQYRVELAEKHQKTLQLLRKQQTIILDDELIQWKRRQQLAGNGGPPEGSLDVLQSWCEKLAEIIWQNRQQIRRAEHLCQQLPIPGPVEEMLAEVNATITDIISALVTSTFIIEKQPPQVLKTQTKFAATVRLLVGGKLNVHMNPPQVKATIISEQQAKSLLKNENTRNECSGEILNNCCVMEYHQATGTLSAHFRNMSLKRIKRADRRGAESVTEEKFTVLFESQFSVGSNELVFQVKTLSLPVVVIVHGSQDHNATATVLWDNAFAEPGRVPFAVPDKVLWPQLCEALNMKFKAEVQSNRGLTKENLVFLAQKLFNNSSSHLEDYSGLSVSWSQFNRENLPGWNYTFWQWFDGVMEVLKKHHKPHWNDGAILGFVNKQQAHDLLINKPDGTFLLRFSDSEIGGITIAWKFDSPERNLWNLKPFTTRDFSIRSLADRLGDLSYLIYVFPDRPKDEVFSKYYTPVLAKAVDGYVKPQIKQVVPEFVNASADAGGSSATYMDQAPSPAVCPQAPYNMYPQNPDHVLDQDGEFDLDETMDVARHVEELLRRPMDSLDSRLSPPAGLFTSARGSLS

| SMILES | target | assay | test system | conditions | Ki [nM] |
| --- | --- | --- | --- | --- | --- |
| Cc1ccc(NC(=O)CCC(NC(=O)CCC(C)C2CCC3C4C(O)CC5CC(O)CCC5(C)C4CCC23C)C(=O)O)c(C)n1 (stereo not shown) | SLC10A2 (Homo sapiens, UniProt Q12908) | taurocholate uptake, inhibitor | ASBT-MDCK | 10 min, added: taurocholate 2.5 µM | 1910 |
| C=C1CCC(=O)C(C)CCC2C1CC2(C)C(=O)C=CC(C)(C)O (stereo not shown) | PNLIP (Sus scrofa, UniProt P00591) | enzyme activity, inhibitor | – | – | 32500 |
| CC(C)=CCC/C(C)=C/CC/C(C)=C(\F)COP(=O)(O)OP(=O)(O)O | SC1 (Streptomyces citricolor, UniProt G5EKM9) | inhibitor, radioligand inhibition | – | added: [3H]FDP | 1100 ± 560 |
| CC1(C)NC(N)=Nc2nc3ccccc3n21 | Bifunctional dihydrofolate reductase-thymidylate synthase, DHFR domain (Trypanosoma cruzi, UniProt Q27793) | enzyme activity, competitive inhibitor | – | added: dihydrofolate 60 µM, NADPH 100 µM | 9660 |
| CC[C@H](C)[C@H](NC(C)=O)C(=O)N[C@H](C(=O)N[C@H](C(=O)N[C@H](CCCCN)C(=O)N[C@H](C=O)CC(=O)O)C(C)C)[C@@H](C)O | CASP3 | enzyme activity, inhibitor, fluorescence | – | pH 7 | > 100000 |
| O=C(OC1CCN(CCOCCOCCN2CCC(OC(=O)C(c3ccccc3)c3ccccc3)CC2)CC1)C(c1ccccc1)c1ccccc1 | CHRM3 | ligand displacement, radioligand | – | – | 2290 |
| Cc1cc(O)c2c(c1)C(=O)c1cc(O)c(O)c(O)c1C2=O | MAOB | enzyme activity, inhibitor | – | – | 2410 |
| CC[C@H](C)[C@H](NC(C)=O)C(=O)N[C@H](C(=O)N[C@H](C(=O)N[C@@H](CCCN)C(=O)N[C@H](C=O)CC(=O)O)C(C)C)[C@@H](C)O | CASP3 | enzyme activity, inhibitor, fluorescence | – | pH 7 | 2090 |
| COc1cccc(-c2c(C#N)c(N)nc(SCc3ncc[nH]3)c2C#N)c1 | ADORA3 (Homo sapiens, UniProt P0DMS8) | ligand displacement, radioligand | – | cell membranes | 71 |
| O=C(COc1cccc2ccccc12)NCc1ccc(OP(=O)(O)O)c(OP(=O)(O)O)c1 | Signal transducer and activator of transcription 5A, SH2 (Homo sapiens, UniProt P42229) | ligand displacement, FP | – | – | 16100 |
| NCc1cc(C(=O)NCCN2CCN(CCCCC3CCN(CC(=O)N4c5ccccc5NC(=O)c5ccccc54)CC3)CC2)cc(C(=O)NCCN2CCN(CCOC(=O)C3c4ccccc4Oc4ccccc43)CC2)c1 | CHRM3 | ligand displacement, radioligand | – | – | 55 |
| C/C(=N\OCCCCN1CCCCC1)c1cccc(C(F)(F)F)c1 | Sigmar1 (Rattus norvegicus, UniProt Q9R0C9) | binding | – | – | 43.2 ± 4.58 |
| CCC(=O)NCc1cc(C(=O)NCCN2CCN(CCCCC3CCN(CC(=O)N4c5ccccc5NC(=O)c5ccccc54)CC3)CC2)cc(C(=O)NCCN2CCN(CCCCC3CCN(CC(=O)N4c5ccccc5NC(=O)c5ccccc54)CC3)CC2)c1 | CHRM3 | ligand displacement, radioligand | – | – | 12.9 |
| O=P(O)(O)CC[C@@H](CO)NCc1c[nH]c2c(O)nc(O)nc12 | Hypoxanthine-guanine phosphoribosyltransferase (Trypanosoma cruzi, UniProt Q4DGA3) | – | – | – | 13400 ± 900 |
| CC(=O)N[C@H](C(=O)N[C@@H](C)C(=O)N[C@H](C=O)CC(=O)O)C(C)C | CASP3 | enzyme activity, inhibitor, fluorescence | – | pH 7 | > 100000 |
| COc1ccc(CCCN[C@@H]2CCC[C@H]2CN[C@@H]2CCC[C@H]2CNCCCCN[C@H]2CCC[C@@H]2CN)cc1 | MAOB | enzyme activity, inhibitor | – | – | > 500000 |
